Measurements pooled from the literature.
A part holds a random share of what one study measured.

Set 1 — technique: RNA Bind-n-Seq; form: RNA; sample: in vitro; concentration: 365 nM; relative to: no-protein control; direction: higher = stronger binding
Target: RNA binding protein fox-1 homolog 2, RRM domain, GST-SBP tag (RBFOX2, Homo sapiens, UniProt O43251-10, residues 100-194)
Notes: natural RNA segment, single round, ends assumed
Target sequence (chain): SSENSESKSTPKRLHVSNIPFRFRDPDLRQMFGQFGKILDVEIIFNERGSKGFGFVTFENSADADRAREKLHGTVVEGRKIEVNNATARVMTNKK
Sequence | RBNS enrichment (R)
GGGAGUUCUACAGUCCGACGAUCUCCCCCUGUCCCCUCAGCUCCAGACGUAGGGGAGGGGUUGCCACAGGCCUCCCUGUUUGAAGCCUGCCCUUGUCUGAGAUGCUGGUAAUGGCCAUGGUACCCCCUUCUGGUGGAAUUCUCGGGUGCCAA | 0.342
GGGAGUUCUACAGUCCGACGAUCCCAGGGACAGUGGGUUUGGAUCUGUCUAGAACAGCGGUUUGUGGCUGUGGCCCAGCUCCGAGAGUGAUAUUUGCUCUGGUAGGUGAGGGCCUGAGGGUACAUUUCUCCACUGGAAUUCUCGGGUGCCAA | 0.55
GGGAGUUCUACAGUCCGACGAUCUCACCUCCGAACUGUUCAAGUGUCCCCAGACCCUUCUUGCCUGCUGGGCUCCCCCCAGUGGGAUGGGACAGGGAGGCCACACGCACUGGUGCCAAAACCAGGCCUCUGCUUGGAAUUCUCGGGUGCCAA | 0.304
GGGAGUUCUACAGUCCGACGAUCUCAGGCUUGUGCCACGGGUGAGCACUGAGGCCCCAGGUGUCCUCCCUCCCCCACUGUCUGGGACACAGGACAGGUGUUGCGUCUGACUCUGUCUCCCCCUGUCCAAGAGCUGGAAUUCUCGGGUGCCAA | 0.442
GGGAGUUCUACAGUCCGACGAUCAUUAAAAAAGAAUUUGGAGUUAGAAAGGAGGGGUUGUCAUCUCCUGGAGCUCAUUGAUUAGAAGAUAACACCCAGGAAUUGUUUCCACUGGGUCCUGGCUGUCCAUAAGGUGGAAUUCUCGGGUGCCAA | 0.896
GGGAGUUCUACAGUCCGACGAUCUUUUAUGCAUUGAUGGUUUUUUUUUUCUUUUUUGCCAAAUUGACUGUCACGCGGCAGCUUCAGGGAGCUCGCAUUCUCUUGUGUUCGUGUUGCCCUCGUGCCCAUCAAGUUGGAAUUCUCGGGUGCCAA | 0.599
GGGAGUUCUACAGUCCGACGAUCAAAGGGGAGCUAUUUUUGCUUUUUAUGUUUUUUAUUGUUAAACUUGUAUCCCUUUAAAAACUGAAGGAAAUUAAAAAAAAAAAACAAAAAAACAAAUCUAAUGGUGCUUUUGGAAUUCUCGGGUGCCAA | 1.29
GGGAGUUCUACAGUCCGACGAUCAUCUCAGGAGGCAGCCUUCCUGACCAAGUGUGUUUGACAUGGAGCGCCCUGUGGUGCCCACCUCCAACCCUCCAGUCUCCUGGUGUUCAUCUGGGCAUGUCUGCACAAGCUGGAAUUCUCGGGUGCCAA | 0.246
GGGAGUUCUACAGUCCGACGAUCGGGCCUCAGAAAUUGUCUCUUUUCUGAGUUUCAAUUUGGUUCUCCUGGAUGUUUUGCUCUGUUUUGGUACCUGUAAUAUAGGGAAACACAACUUUUUUUGGGAAAGCCCUUGGAAUUCUCGGGUGCCAA | 0.819

Set 2 — technique: protein-binding microarray; form: double-stranded DNA, one strand shown; sample: in vitro; concentration: 940 nM top; notes: 60-bp whole probe; together with: salmon DNA 0.4 mg/ml; relative to: random background probes; direction: higher = stronger binding; shared flanks, not repeated: GCCTAGCAC … GTCTTGATTCGCTTGACGCTGCTG
Target: Interferon regulatory factor 5, full length, phosphomimetic (IRF5, Homo sapiens, UniProt Q13568-2, residues 1-514, S451D/S453D/S456D/S462D)
Sequence | fitted relative affinity
TCATTTTTTTTTCCCTGACTGTGCTAG | 1.73 z-score
TTAGGTATCGACTTTCGGATAGTGCTA | 5.66 z-score
GACGGACTGGGGTATCGGGTCGTGCTA | 1.06 z-score
TCAGTTTTTGCTTTCCTACTGTGCTAG | 1.94 z-score
GACGGTATCGGTTTCGGGGCGTGCTAG | 10 z-score
GACGGTTTCGGGACTGGGGCCGTGCTA | 6.78 z-score
TTAGATTTCAGCATCGATTAGTGCTAG | 0.432 z-score
TTAGGTATCGGGACTGTGTTAGTGCTA | 4.1 z-score
TTAGGTTTCGGGGATCGGTTAGTGCTA | 8.57 z-score
GACGGTTTCGATCTCGGGACGTGCTAG | 11.4 z-score
TTAGGACTAGGTTTCGGTTAGTGCTAG | 7.38 z-score
TTAGGTATCGTTCTCGGTTAGTGCTAG | 6.26 z-score
TTAGATTTCAGTCTGGATTAGTGCTAG | 0.362 z-score
GACGGTATCCTTCTCCTGCCGTGCTAG | 0.515 z-score
TTAGGTATCCTTATCCTGTAGTGCTAG | 0.421 z-score
TTCGGTCTCGGACTGGGTTAGTGCTAG | 1.25 z-score
TTAGATATCAGACTGGATTAGTGCTAG | -0.353 z-score
CCCGATATGCGGTAAGGGCGCGTGCTA | -0.384 z-score
GACGGTATCGGTTTCGGCACGTGCTAG | 9.91 z-score
TTAGGTCTCCTCCTCCTTTAGTGCTAG | 0.376 z-score
TCATAATTCACTATTACACTGTGCTAG | 0.744 z-score
CTTGCTTTATGTGTAGGTCTGTGCTAG | -0.0953 z-score
TTAGTTCTCGGTATCGGTTAGTGCTAG | 7.96 z-score

Set 3 — technique: RNA Bind-n-Seq; form: RNA; sample: in vitro; concentration: 200 nM; notes: whole 134-nt RNA, ends assumed; together with: 150 mM LiCl; relative to: input library; direction: higher = stronger binding; each molecule: 7-deaza-guanosine replaces G
Target: Ras GTPase-activating protein-binding protein 1, full length (G3BP1, Homo sapiens, UniProt Q13283)
Sequence of UniProt Q13283 (whole entry, looked up): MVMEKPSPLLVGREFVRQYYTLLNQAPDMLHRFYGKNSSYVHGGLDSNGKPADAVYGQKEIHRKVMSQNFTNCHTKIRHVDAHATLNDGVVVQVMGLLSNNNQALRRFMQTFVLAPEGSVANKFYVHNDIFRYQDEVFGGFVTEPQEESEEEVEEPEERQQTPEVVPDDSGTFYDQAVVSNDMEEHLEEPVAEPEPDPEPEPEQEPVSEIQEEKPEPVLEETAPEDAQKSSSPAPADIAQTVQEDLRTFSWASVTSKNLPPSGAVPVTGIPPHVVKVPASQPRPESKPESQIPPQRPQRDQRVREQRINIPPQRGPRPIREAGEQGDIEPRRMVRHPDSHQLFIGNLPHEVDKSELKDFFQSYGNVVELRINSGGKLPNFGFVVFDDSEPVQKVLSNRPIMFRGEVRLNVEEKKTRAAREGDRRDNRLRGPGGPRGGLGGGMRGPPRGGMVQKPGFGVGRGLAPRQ
Sequence | log2 enrichment
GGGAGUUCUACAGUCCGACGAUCCCUGUGCUACACAUCGUAUGUACCGAAUCAAACCCCCCCAAACCCCCAAACCCCCCCAAAAAAGUAUUAUGUUACGCCGUUCGGAUCUGCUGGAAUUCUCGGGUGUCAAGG | 0.24
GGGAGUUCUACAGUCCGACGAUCACCAUGCAGGUGGGCAUCUUCGGGAAGUGGGGCAAGGGGGGGAUAGGGAGGGGGGUAACACUUUGGGAACAGGUGGUCCCAGGUCGUUUCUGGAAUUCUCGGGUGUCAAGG | 0.518
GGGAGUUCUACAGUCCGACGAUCUCCUGUGCUACACAUCGUAUGUACCGAAUCGGAAAAAAGGGGAAAAAAGGGGAAAAAAGGAAAGUAUUAUGUUACGCCGUUCGGAUCUGCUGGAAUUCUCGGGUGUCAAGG | -0.352
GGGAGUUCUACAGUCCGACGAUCUGCUGGAGGCAAAAAAUGCCAGCCUGGCGUCGUCCAACAACGACUUGCAGGUGGCCGAGGAGCAGUACCAGAGGCUUAUGGCCAAGGUAGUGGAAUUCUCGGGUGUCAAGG | -1.86
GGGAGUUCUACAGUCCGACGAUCCACAGACAACACGCACCCACACAGACACAGACGGAAGGGGUUGGGAUGGGGACAGGGUGCACAGCAGGGCGGGGUAGGACCCCAGCCCCUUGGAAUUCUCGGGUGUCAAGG | 0.0213
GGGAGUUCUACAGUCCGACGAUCGUCCUGUGCUACACAUCGUAUGUACCGAAUCGGGGCCCCCGGCCCCCGGGCCCCCGGGGAAAGUAUUAUGUUACGCCGUUCGGAUCUGCAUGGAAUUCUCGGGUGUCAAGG | -1.78
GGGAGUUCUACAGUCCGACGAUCUGGGAGGUGGAUUUUGUUUAUUUUUUUAGCUCAUUUCCAGGGGUGGGAAUUUUUUUUUAAUAUGUGUCAUGAAUAAAGUUGUUUUUGAGAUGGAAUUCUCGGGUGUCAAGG | 0.395
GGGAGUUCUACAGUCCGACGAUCCAAGUCCUGUGCUACACAUCGUAUGUACCGAAUCGGGUUUUGGUUUUGGUUUUGGAAAGUAUUAUGUUACGCCGUUCGGAUCUGCACUUCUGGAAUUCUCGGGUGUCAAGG | -0.742
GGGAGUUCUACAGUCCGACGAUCCUGUGCUACACAUCGUAUGUACCGAAUCGGGUUUUUUUGGGAAAAAAAGGGAAAAAAAGGGAAAGUAUUAUGUUACGCCGUUCGGAUCUGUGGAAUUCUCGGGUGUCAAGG | -1.71
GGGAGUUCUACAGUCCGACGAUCACCAUGCAGGUGGGCAUCUUUGGGAAGUGGGGCAAGGGGGGGAUAGGGAGGGGGGUAAGACUUUGGGAACAGGUGGUCCCAGGUCGUUUCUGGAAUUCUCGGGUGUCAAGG | 0.344
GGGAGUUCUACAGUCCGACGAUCCCUGUGCUACACAUCGUAUGUACCGAAUCGGGGAAAAAAAGGGGUUUUUGGGGAAAGGGGAAAGUAUUAUGUUACGCCGUUCGGAUCUGCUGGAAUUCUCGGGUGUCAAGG | 0.311

Set 4 — technique: RNA Bind-n-Seq; form: RNA; sample: in vitro; concentration: not given; relative to: input RNA pool; direction: higher = stronger binding
Target: RING finger protein unkempt homolog, zinc fingers 1-6, GST-SBP tag (UNK, Homo sapiens, UniProt Q9C0B0, residues 30-357)
Notes: RNA with constant flanks, human and mouse sites, ends assumed
Residues (chain): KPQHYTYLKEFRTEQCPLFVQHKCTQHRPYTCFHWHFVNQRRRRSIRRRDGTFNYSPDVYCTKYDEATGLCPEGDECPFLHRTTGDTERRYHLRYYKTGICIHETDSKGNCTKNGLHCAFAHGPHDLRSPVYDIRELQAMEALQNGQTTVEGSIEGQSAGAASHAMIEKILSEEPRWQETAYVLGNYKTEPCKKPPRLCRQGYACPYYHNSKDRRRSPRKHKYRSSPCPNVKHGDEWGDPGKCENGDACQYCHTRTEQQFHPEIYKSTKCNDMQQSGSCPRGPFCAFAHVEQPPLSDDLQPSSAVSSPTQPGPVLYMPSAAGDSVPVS
Sequence | bound/input enrichment
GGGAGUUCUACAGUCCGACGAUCGUCCUUAUCUUGAAGACUGGAGAUGGCAGCAAUGUAACCAGCAACUUCACAAAAGACCCUUCUAUUCUAAUCCCUGAGUUAAUCCCUGGUGUCUCUUACACAGUGAAGAUCCUUACACAACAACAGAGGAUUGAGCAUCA | 0.203 ratio
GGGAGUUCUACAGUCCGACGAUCGAGGAGAAGCCGCCUAACCCUAUGGAGGGCAUGACAGAGGAGCAGAAGGAGCACGAGGCCAUGAAGCUGGUGACCAUGUUUGACAAGCUCUCCAGGAACAGAGUCAUCCAGCCAAUGGGGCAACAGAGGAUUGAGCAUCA | 0.178 ratio
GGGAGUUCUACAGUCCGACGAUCGAUGAUGAAAGUGAAGAGGAUGAAGAUGAUUUGUUGCAAAGGACUGGGAAUUUCAUCUCCACAUCCACGUCUCUUCCAAGAGGAAUCUUGAAGAUGAAGAACUGCCGGCCUGCCAAUGCUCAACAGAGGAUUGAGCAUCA | 0.388 ratio
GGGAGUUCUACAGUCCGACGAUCGUGCGAGUUGAGUGGAUCGCGGCCGUCACCUUUGCUGCUGGCACAGCCGCUCUCGGUUACCUGGCUUACAAGAAGUUCUACGCUAAAGAGAAUCGCACCAAAGCUAUGGUGAAUCUUCAGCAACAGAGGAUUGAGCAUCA | 0.067 ratio
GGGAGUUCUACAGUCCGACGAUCAAUAAGAGAAAAGAUAACAAGAAAACAGAUACCGAAGAAGAAGUAAAAAUACCAGUAGUGUGUGCUUUAACUCAAGAAGAAUCUUCAACCCCAUUAUCAAAUGAAGAGGAGCAUUUAGACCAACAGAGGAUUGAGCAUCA | 2.11 ratio
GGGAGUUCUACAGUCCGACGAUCUAUCAUCCUGAUAAGAAUCCAAAUGCAGGAGACAAAAAUUAAAUGGAUUCUGGAUUCCUGUAGCUUCUCCCCACUCUUCUACUUGAAAAUGCAAUUAUUUUUAUUUUUACCUUUUCUUUACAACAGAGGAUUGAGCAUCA | 0.696 ratio
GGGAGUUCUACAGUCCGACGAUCCAAACGUGGGUGUUGGUGUGGACGGGGCGCAGAUCUCCGUGGAUGAACUGCGUCUGGACUCUUAGAUUCAUAAAAUAUUCGAGGGUUUGGGAGUCACAGACCCUCCCCUCUCCUCAGUGCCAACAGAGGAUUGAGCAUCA | 2.76 ratio
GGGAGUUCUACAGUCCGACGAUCACAGACUGUGUGGUAAUGAGGGAUCCUGCAAGCAAAAGAUCAAGAGGAUUUGGUUUUGUAACUUUUUCAUCCAUGGCUGAGGUUGAUGCUGCCAUGGCUGCAAGACCUCAUUCAAUUGAUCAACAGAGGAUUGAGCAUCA | 0.262 ratio
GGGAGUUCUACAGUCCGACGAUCAUUGAAGCCAUGCUUGAGGCCCCUUACAAGAAGGAUGAGAACAAGUUGAACAGUGCUAACGGCCAUGAAGAACGUAGCAAAAAGAGAAAAAAAAGCAAGAGCAGAAGUCGUAGUCAUGAGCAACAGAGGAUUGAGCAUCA | 0.578 ratio
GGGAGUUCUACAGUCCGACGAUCGAAAUGGUUCCAGAAAAACGAGCCUCAGCUGGCGAAUGCCUUCGGCAUCCUUGGUUGAAUUCUUAGCAAAUUCUACCAAUAUUGCAUUCUGAGCUAGCAAAUGUUCCCAGUACAUUGGACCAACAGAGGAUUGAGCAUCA | 0.183 ratio
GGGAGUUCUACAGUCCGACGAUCGAGGGCAAUGCAGCCACUUCCUAUCAGAAGCAGACUGACAAACCCAGCCACUGUAGCCAGUUUGUGACACCUCCGCGGAUGAGGAGACAGUUCUCAGCACCCAAUCUCAAAGCUGGUCGACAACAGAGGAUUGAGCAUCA | 0.0962 ratio

A few entries again (set 2):
Sequence | fitted relative affinity
TTAGGTATCCTTATCCTGTAGTGCTAG | 0.421 z-score
TTCGGTCTCGGACTGGGTTAGTGCTAG | 1.25 z-score
GACGGTATCGGTTTCGGCACGTGCTAG | 9.91 z-score
TTAGATATCAGACTGGATTAGTGCTAG | -0.353 z-score
GACGGACTGGGGTATCGGGTCGTGCTA | 1.06 z-score
TCATTTTTTTTTCCCTGACTGTGCTAG | 1.73 z-score
